Published values of several laboratories.
Parts stem from different laboratories: compare values within a part only. Positions count from the first letter of the parent shown.
Sequence of UniProt P49459 (whole entry, looked up): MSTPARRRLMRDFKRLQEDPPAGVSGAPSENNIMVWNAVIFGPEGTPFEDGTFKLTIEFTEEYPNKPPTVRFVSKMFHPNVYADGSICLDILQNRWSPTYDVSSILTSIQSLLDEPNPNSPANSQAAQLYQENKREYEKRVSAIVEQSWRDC
Sequence of UniProt Q96B02 (whole entry, looked up): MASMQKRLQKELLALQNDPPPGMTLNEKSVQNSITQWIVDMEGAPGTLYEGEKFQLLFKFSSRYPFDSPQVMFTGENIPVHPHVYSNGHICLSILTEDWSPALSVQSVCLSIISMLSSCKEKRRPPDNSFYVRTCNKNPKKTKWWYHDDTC
Sequence of UniProt P61077 (whole entry, looked up): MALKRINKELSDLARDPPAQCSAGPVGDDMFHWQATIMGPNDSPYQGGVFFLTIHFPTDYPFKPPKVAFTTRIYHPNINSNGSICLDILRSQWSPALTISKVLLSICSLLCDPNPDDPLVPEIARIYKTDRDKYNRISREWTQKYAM

Sample 1
Target: CCNE1, cyclin fold, Cln2 fusion (human)
Method: yeast growth competition, sequencing
Sample: yeast
Setting: strong parent motif
Reference: not given
Reading: higher = stronger binding
Parent: viral docking peptide; KGVKRKLFAEDSS
| Substitution | normalised enrichment score |
| --- | --- |
| A9G | 7.43 |
| E10K | 5.8 |
| K6E | 5.57 |

Sample 2
Target: Hepatocyte nuclear factor 3-alpha (Foxa1, Mus musculus, UniProt P35582, residues 1-468, full length assumed)
Method: EMSA with sequencing
Molecule type: double-stranded DNA, one strand shown
Sample: in vitro
Concentration: 10 and 20 nM
Setting: whole designed probe, mean of two concentrations, ends assumed
Reference: negative control set to 0
Reading: higher = stronger binding
Constant ends, left off below: GTGAGCGGTGCCCATTGATGGGGAAC … TTTCACTGGGATCGTGGGGAC
Construct (chain): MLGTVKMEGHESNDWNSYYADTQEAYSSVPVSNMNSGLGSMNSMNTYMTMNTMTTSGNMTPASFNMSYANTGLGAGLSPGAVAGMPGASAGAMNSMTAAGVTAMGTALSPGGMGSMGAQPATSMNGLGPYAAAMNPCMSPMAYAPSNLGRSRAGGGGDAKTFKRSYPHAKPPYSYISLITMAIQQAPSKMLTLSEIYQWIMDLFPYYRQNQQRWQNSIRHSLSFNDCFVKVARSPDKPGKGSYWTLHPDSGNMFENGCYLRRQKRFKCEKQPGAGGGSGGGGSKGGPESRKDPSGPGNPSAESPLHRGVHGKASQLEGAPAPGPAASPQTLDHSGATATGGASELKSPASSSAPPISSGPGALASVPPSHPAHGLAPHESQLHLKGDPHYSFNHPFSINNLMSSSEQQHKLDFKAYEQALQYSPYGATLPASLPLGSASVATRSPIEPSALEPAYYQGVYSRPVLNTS
| Sequence | normalised bound fraction [ratio] |
| --- | --- |
| CAGTTTTGCAAATGAGTAGTAATTACATTTATCTATAACTTTTACTATGTTTTTCTTGAATGATATTCTGCATCCAAATTGTATTCTTTCTTCCTGTTTACTTTGTTAGGCCAATCTTATTGTTCTCAGATTCATGAGGGTGCACTGCAATTTTGAGTTCAGAGAGAAGTTGAGAGTAGAAAAGCCTAAAATT | 0.291 |
| ATCTTCCCCCTCTTCCTTGCCCCACCAGCTCACCTACGGGGGTTATTTGCAGATAGGAAAATAAATAAAGCCGGCATTCGTTAACCCTCTTCACGCGCATACTGCTGTTTGCTCTGGATCTAACATGGTCCTTTGGCGACGCCAGGCTCCGGGAGAGCAAAGCACCGTGTCAGGGCCATGATCCGGGCTCGCC | 0.344 |
| CATTAGAGTCAAAGTTGTTAAGGGGAGCTAGTCATAGCTACCACGTGGCCAGGCATGTGGAACCAGATGAATCATCAACACCAGGCACACATCTATTTACTTTAAATAATGCTGACAACCTAGTTCATAGTGACACACTACTTGAGATATATAGAATAACATTATTACCCAGTAAGTATGTGAACATTCCGAT | 0.383 |
| TGCTTGTGTTTCAGTAAAAATAGACTAGTACGTCTAAACCAACCTCATTTATTTTTAAGTAATTTCTTCTGAGCAAGTGATAAACTGATACATGTTTACACTGAACTCTTTCTTAGCAATAAGACAATAAATATTCTTTTAAAAAAACACGTTTAAAGTGTTTCACTAAATGTTTTCTCATTATTTGTAACAA | 0.155 |
| ATTTCCCCCAGCCAGTTTTAAATGTGTTATCTGAGCAAGCAAAACCTAAGAATTTCGGTCTTTAAGGACCAGAAATCTGGGACCCAGGCCAAAGTAATCTTAGTGGCAATGTATTGCTAAACCCAAATGCAACATTGCTAACCAGTTGCTCAGATGTTCTCACAAAGTAATATTTTCTAACAGTTAGTGATTC | -0.0087 |

Sample 3
Molecule: B1 (TRIM10 RING domain)
Method: yeast two-hybrid
Sample: yeast
Setting: mostly zero background
Reference: not given
Reading: higher = stronger interaction
B1: TRIM10 RING domain (UniProt Q9UDY6); chain SVTSLADEVNCPICQGTLREPVTIDCGHNFCRACLTRYCEIPGPDLEESPTCPLCKEPFRPGSFRP
| target | lacZ reporter activity |
| --- | --- |
| UBE2W UBC core domain (UniProt Q96B02) | 0 |
| UBE2A UBC core domain (UniProt P49459) | 0 |
| UBE2D3 UBC core domain (UniProt P61077) | 0 |

Sample 4
Target: TAR DNA-binding protein 43, full length, His tag (TARDBP, Homo sapiens, UniProt Q13148, residues 1-414)
Method: RNA Bind-n-Seq
Molecule type: RNA
Sample: in vitro
Concentration: 20 nM
Setting: 6-mer, flanks averaged, single round
Added: 150 mM LiCl
Reference: input library
Reading: higher = stronger binding
| Sequence | 6-mer enrichment (R) |
| --- | --- |
| ACCUCU | 0.91 |
| GCUAUC | 0.87 |
| CGCCCA | 0.981 |
| AGUAAU | 0.897 |
| UAGAUA | 0.876 |
| UGGUAA | 1 |
| CGAUGG | 0.938 |
| GUUGGU | 1.26 |

A few entries again (sample 2):
| Sequence | normalised bound fraction [ratio] |
| --- | --- |
| TGCTTGTGTTTCAGTAAAAATAGACTAGTACGTCTAAACCAACCTCATTTATTTTTAAGTAATTTCTTCTGAGCAAGTGATAAACTGATACATGTTTACACTGAACTCTTTCTTAGCAATAAGACAATAAATATTCTTTTAAAAAAACACGTTTAAAGTGTTTCACTAAATGTTTTCTCATTATTTGTAACAA | 0.155 |
| ATTTCCCCCAGCCAGTTTTAAATGTGTTATCTGAGCAAGCAAAACCTAAGAATTTCGGTCTTTAAGGACCAGAAATCTGGGACCCAGGCCAAAGTAATCTTAGTGGCAATGTATTGCTAAACCCAAATGCAACATTGCTAACCAGTTGCTCAGATGTTCTCACAAAGTAATATTTTCTAACAGTTAGTGATTC | -0.0087 |
